Results of several laboratories.
Lines come from different studies, so protocols differ. “And” joins repeats or separate records; there may be more than shown. Numbers after ± are the reported error.
lasR: Transcriptional activator protein LasR (lasR, Pseudomonas aeruginosa, UniProt P25084)

Sequences of proteins named here, by UniProt entry; tags and fusion partners are left off. Residues count along the entry.
UniProt P25084, whole entry: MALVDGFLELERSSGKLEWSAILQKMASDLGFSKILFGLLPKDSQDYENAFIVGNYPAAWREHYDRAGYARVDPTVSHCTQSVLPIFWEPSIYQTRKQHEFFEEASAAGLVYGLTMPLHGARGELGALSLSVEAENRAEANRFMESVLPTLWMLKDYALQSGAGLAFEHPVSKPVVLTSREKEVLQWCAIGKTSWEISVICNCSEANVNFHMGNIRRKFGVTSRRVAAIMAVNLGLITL
UniProt Q81258, 2431-3021 limits assumed: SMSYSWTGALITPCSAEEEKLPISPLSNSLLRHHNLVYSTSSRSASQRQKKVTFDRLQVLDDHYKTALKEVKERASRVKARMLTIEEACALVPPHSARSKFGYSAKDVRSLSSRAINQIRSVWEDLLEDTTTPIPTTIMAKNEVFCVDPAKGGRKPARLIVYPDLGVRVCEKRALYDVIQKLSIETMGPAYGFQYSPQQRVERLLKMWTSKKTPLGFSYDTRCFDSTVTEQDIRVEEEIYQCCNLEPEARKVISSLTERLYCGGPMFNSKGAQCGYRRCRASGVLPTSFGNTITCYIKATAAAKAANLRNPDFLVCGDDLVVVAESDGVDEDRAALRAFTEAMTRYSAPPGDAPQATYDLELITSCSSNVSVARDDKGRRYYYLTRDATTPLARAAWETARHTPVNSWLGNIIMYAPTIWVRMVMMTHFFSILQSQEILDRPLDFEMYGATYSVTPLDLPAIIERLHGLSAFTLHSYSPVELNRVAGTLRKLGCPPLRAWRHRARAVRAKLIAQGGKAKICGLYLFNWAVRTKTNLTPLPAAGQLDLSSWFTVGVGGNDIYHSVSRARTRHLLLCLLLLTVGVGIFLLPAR
UniProt P30291, whole entry: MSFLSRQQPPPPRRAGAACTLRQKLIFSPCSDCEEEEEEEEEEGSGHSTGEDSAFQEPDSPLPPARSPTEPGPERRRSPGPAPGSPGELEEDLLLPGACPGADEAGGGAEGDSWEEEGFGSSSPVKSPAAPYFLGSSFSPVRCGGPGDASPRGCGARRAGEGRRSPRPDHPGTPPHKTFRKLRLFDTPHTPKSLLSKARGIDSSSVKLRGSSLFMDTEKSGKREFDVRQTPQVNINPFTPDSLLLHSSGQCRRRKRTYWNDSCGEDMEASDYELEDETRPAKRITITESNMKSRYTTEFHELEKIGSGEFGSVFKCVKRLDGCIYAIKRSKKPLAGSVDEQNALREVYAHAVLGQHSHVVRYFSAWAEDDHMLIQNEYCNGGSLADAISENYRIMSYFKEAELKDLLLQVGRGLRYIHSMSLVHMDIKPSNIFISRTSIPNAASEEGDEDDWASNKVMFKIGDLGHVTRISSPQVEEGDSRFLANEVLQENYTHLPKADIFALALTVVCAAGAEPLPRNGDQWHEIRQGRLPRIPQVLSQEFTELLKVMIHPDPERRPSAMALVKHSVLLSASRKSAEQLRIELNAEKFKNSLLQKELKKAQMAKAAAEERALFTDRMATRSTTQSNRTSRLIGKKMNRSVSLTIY
UniProt Q96SW2, whole entry: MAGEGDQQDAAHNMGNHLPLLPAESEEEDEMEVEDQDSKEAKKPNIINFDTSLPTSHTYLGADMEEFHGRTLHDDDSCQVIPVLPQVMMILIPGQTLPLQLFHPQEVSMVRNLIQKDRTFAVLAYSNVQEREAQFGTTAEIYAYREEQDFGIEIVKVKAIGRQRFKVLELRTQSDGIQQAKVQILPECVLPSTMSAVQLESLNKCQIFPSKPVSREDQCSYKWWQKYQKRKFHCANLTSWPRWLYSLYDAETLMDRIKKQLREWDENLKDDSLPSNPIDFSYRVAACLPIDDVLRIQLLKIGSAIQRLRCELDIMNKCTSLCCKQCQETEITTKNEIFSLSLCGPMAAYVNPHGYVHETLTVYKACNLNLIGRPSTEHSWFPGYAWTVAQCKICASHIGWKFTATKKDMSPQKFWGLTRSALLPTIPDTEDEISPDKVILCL
UniProt P35372, whole entry: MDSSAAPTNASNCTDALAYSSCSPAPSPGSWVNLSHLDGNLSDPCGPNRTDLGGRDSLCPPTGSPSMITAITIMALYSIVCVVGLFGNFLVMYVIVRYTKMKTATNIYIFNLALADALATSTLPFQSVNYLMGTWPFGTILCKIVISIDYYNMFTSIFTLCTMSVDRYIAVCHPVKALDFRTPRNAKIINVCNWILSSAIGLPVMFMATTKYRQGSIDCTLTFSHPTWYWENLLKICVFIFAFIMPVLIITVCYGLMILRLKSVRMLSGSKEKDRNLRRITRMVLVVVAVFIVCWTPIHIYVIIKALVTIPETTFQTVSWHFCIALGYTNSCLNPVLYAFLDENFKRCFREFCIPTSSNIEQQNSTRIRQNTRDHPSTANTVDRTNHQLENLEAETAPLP
UniProt Q8RLA6, 21-275 limits assumed: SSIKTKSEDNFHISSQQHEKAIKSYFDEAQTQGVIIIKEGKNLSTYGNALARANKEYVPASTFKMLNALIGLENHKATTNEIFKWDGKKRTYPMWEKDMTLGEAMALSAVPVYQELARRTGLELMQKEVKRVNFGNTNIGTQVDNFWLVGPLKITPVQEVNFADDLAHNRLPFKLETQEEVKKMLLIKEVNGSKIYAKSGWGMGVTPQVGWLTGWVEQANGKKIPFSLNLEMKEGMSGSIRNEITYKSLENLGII
UniProt P42264, 32-919 limits assumed: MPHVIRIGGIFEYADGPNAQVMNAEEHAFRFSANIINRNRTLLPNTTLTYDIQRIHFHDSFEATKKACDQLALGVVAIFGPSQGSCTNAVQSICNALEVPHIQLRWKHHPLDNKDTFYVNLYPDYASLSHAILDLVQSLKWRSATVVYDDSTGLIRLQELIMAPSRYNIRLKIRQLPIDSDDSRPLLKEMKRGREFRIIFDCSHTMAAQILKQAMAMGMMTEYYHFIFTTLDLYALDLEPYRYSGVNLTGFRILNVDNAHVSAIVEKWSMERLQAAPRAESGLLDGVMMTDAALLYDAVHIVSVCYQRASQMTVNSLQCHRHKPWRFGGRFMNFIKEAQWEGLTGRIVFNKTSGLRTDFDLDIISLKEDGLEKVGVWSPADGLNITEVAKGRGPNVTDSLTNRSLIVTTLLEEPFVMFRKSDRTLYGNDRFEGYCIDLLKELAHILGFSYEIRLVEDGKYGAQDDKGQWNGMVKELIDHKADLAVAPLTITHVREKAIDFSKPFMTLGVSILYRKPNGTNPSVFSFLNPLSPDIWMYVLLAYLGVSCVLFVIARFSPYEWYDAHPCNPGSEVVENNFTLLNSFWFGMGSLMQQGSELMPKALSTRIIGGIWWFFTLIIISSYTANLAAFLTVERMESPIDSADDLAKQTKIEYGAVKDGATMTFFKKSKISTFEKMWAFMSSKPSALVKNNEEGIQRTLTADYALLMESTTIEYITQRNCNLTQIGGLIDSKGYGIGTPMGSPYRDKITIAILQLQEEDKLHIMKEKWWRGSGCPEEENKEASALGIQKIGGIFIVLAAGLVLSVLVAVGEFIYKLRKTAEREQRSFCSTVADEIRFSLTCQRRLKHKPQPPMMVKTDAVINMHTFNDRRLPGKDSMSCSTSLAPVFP
UniProt Q5U3Y7, whole entry: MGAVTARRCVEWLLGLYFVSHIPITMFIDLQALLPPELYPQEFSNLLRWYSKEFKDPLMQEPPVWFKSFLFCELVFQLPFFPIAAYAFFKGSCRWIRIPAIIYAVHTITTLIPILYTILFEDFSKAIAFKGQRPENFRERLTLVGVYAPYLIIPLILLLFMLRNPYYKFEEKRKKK
UniProt Q13148, whole entry: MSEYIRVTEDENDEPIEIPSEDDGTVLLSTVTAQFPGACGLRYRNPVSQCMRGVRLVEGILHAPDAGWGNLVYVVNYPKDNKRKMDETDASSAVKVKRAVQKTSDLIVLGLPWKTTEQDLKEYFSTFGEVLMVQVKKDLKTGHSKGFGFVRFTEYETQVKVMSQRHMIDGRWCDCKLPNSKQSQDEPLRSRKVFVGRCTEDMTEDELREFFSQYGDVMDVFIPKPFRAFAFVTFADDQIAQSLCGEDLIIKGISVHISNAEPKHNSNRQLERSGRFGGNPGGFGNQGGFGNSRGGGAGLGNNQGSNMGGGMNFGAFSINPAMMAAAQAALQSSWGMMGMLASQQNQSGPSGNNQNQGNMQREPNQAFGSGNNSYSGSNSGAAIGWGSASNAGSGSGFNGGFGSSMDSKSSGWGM

| SMILES | target | assay | system | setting | measurement | result |
| --- | --- | --- | --- | --- | --- | --- |
| O=c1ccn([C@@H]2O[C@H](COP(=O)(O)OP(=O)(O)OP(=O)(O)O)[C@@H](O)[C@]2(F)Br)c(=O)[nH]1 | Genome polyprotein, NS5B polymerase (Hepatitis C virus genotype 3a, UniProt Q81258) | polymerase activity, inhibitor | Hepatitis C virus, genotype 3a |  | IC50 | 1800 nM |
| CCCCCCCCCCCCNC(=O)N[C@H](C(=O)N[C@H]1/C=C/CCNC(=O)/C=C/[C@H](C)NC1=O)C(C)C | PSMB5 (Homo sapiens, UniProt P28074) | chymotrypsin-like activity, inhibitor, Proteasome-Glo | U-266 | 24 h | Ki | 54.6 ± 10.4 nM |
| COC(=O)C1=C(C(=O)OC)C2([C@H](C)Nc3ccc(Cl)cc3)C=CC1O2 (some centres unmarked) | SUMO-activating enzyme subunit 2, with SAE1 (Homo sapiens, UniProt Q9UBT2) | SUMOylation, inhibitor, AlphaScreen |  | with: SUMO1-RanGAP1 conjugation | IC50 | 11300 nM |
| CN1C(=O)CCC(N2Cc3cc(-c4nc5ccccn5c4NC(C)(C)C)ccc3C2=O)C1=O (centres unmarked) | WEE1/CRBN (Homo sapiens, UniProt P30291+Q96SW2) | degrader, HiBiT luciferase | Jurkat (HiBiT-tagged) | 5 h | DC50 | > 10000 nM |
| COCOc1ccc(C(=O)OC2=C[C@@H](C(=O)OC)[C@]3(C)CC[C@H]4C(=O)O[C@H](c5ccoc5)C[C@]4(C)[C@H]3C2=O)cc1Br | OPRM1 (Homo sapiens, UniProt P35372) | agonist |  |  | EC50 | 1300 ± 200 nM |
| O=S(=O)(O)c1ccc2cc(S(=O)(=O)O)ccc2c1 | Beta-lactamase (blaOXA-33, Acinetobacter baumannii, UniProt Q8RLA6) | enzyme activity, inhibitor |  | enzyme 0.2 nM, with: nitrocefin 30 µM | Ki | 150000 nM and > 100000 nM |
| O=C(O)C(Cc1nn[nH]n1)[C@@H]1CCN[C@H]1C(=O)O (relative stereo) | Glutamate receptor ionotropic, kainate 3 (Rattus norvegicus, UniProt P42264) | binding | Sf9 cells | cloned homomeric receptor, with: [3H]kainate | Ki | 4900 ± 500 nM |
| COc1c(Br)cc(Br)cc1CNC(=O)c1ccccc1[N+](=O)[O-] | lasR | reporter gene, agonist | Escherichia coli JLD271 lasI-lacZ reporter |  | EC50 | > 60 nM |
| O[C@H](c1ccc(F)cc1)C(F)(F)CCN1CCC(O)(c2ccc(Cl)cc2)CC1 (racemic) | Tmem97 (Rattus norvegicus, UniProt Q5U3Y7) |  |  |  | Ki | 24.1 ± 2.8 nM |
| O=C(NCc1cc(Br)cc(Br)c1OC(=O)c1ccccc1Cl)c1ccccc1Cl | lasR | reporter gene, agonist | Escherichia coli JLD271 lasI-lacZ reporter |  | EC50 | 7.99 nM |
| Cc1nc2c[nH]c(/C=C/C=C/c3ccc(N(C)C)cc3)cn-2c1=O | TARDBP (Homo sapiens, UniProt Q13148) | binding |  |  | Kd | 2300 nM |

Repeated from above:
| SMILES | target | assay | system | setting | measurement | result |
| --- | --- | --- | --- | --- | --- | --- |
| O=c1ccn([C@@H]2O[C@H](COP(=O)(O)OP(=O)(O)OP(=O)(O)O)[C@@H](O)[C@]2(F)Br)c(=O)[nH]1 | Genome polyprotein, NS5B polymerase (Hepatitis C virus genotype 3a, UniProt Q81258) | polymerase activity, inhibitor | Hepatitis C virus, genotype 3a |  | IC50 | 1800 nM |
